Results gathered from unrelated publications.
Each line is one published result; not all experiments were run side by side. ± marks the error that the study gave.

The EC50 of `CN[C@H]1CCN(C(=O)c2c(C)cc(C(F)(F)F)nc2-c2ccnc3cc(CN4C(=O)C5C(C4=O)C5(C)C)sc23)C1` (stereo partly drawn) is reported as 0.15 µM (SW480; Wnt/β-catenin reporter, inhibitor, TOPFlash/FOPFlash; 24 h).
The EC50 of `C(=N\Nc1nc(-c2ccccn2)nc2ccccc12)/c1ccccc1` is reported as 10 µM (LDR; silenced CMV-GFP reporter derepression, qHTS).
`COC(=O)[C@H](C)NC(=O)[C@H](C)NC(=O)c1csc(-c2cccnc2)n1` gave an EC50 of > 30 µM (LNCaP; cell growth or viability).
`[Cl-].[Cl-].[Ru+2].c1ccc(-c2ccccn2)nc1.c1ccc(-c2ccccn2)nc1.c1ccc2cc3nc4c5cccnc5c5ncccc5c4nc3cc2c1` has an EC50 of 0.165 ± 0.004 µM (SK-MEL-28; phototoxicity, resazurin; normoxia, with: green light 523 nm, 100 J/cm2, 20 mW/cm2).
For `CC(C)(C)c1cc(-c2ccc3cccnc3n2)nc(-c2ccc3cccnc3n2)c1.COc1ccncc1.[Cl-].[Cl-].[Ru+2].c1ccc2cc3nc4c5cccnc5c5ncccc5c4nc3cc2c1`, the EC50 was 33.4 ± 5.8 µM (SK-MEL-28; photocytotoxicity; light 633 nm, oxygen 1%).
The EC50 of `O=c1[nH][nH]c(=S)n2nc(-c3ccccc3)cc12` is reported as 1.78 µM (SH-SY5Y; cytoprotection, FDA/PI staining; with: 0.8 µM p-tau).
The EC50 of `COc1cccc(/C=N/Nc2nc(Nc3ccccc3)nc(-n3nc(C)cc3C)n2)c1O` is reported as 2.51 µM (LDR; silenced CMV-GFP reporter derepression, qHTS).
`C=C(NC(=O)c1csc(-c2cccnc2)n1)C(=O)NC(=C)C(=O)OC` gave an EC50 of 4.9 µM (SQ20B; cell growth or viability).
The EC50 of `COc1ccc(NC(=O)CSc2nc3c(oc4ccccc43)c(=O)n2Cc2ccco2)cc1Cl` is reported as 3.16 µM (LDR; silenced CMV-GFP reporter derepression, qHTS).
For `Nc1ccccc1Nc1nc2ccccc2[nH]1`, the EC50 was 15.1 µM (SH-SY5Y; cytoprotection, FDA/PI staining; with: 0.8 µM p-tau).
For `CCN(CC)CCCNC(=O)CSc1c2c(nc3cc(Cl)ccc13)CCCC2`, the EC50 was 0.398 µM (LDR; silenced CMV-GFP reporter derepression, qHTS).
For `C=C(NC(=O)c1csc(-c2ccc(NC(=O)CCCCCBr)cc2)n1)C(=O)NC(=C)C(=O)OC`, the EC50 was 9.4 µM (PC3-TxR; cell growth or viability).

Repeated from above:
For `CCN(CC)CCCNC(=O)CSc1c2c(nc3cc(Cl)ccc13)CCCC2`, the EC50 was 0.398 µM (LDR; silenced CMV-GFP reporter derepression, qHTS).
